Measurements of several laboratories.
Each numbered part is a random draw from the data of one study; scales do not carry over between parts. Positions count from the first letter of the parent shown.

Study 1
Target: CCNB3, cyclin fold, Cln2 fusion (human)
Method: yeast growth competition, sequencing
Sample: yeast
Setting: weak parent motif
Reference: not given
Reading: higher = stronger binding
Starting sequence: CDKN1A docking peptide (human); SKACRRLFGPVDS; partner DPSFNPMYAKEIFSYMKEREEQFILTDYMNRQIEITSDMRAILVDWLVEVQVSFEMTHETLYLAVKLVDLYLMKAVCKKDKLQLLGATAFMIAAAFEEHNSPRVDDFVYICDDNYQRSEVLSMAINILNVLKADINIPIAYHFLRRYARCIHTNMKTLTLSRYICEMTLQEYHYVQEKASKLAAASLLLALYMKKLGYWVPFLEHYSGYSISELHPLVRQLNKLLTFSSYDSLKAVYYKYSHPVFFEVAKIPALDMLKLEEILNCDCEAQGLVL
Substitution	normalised enrichment score
SKACTRLFGPVDS [R5T]	-0.0456
SKACRRLFDPVDS [G9D]	0.257
SKACRRLFGPADS [V11A]	0.821
SKGCRRLFGPVDS [A3G]	0.157
SKACARLFGPVDS [R5A]	0.177
SKACRRLFGPVFS [D12F]	0.636
SKACRWLFGPVDS [R6W]	0.508
SKACRRWFGPVDS [L7W]	0.432

Study 2
Target: Prothrombin, mature alpha-thrombin (F2, Homo sapiens, UniProt P00734)
Method: aptamer microarray, sandwich
Form: DNA with 2'F-ANA
Sample: in vitro
Tested at: 200 nM
Setting: whole 15-mer aptamer, many near background
Together with: Cy3 exosite-II aptamer, 400 nM
Reading: higher = stronger binding
Strand: GGTTGGTGTGGTTGG
Modification	mean fluorescence intensity [a.u.]
2'F-ANA at 3 4 5 7 10 12 13	52.2
2'F-ANA at 1 7 9 12 13	235
2'F-ANA at 2 3 4 6 8 14 15	242
2'F-ANA at 4 6 8 9 10 11 12 13 14	55.2
2'F-ANA at 1 6 8 9 11 14	56.4
2'F-ANA at 1 4 5 8 15	60.2
2'F-ANA at 4 7 9 10 11 13 14 15	59.7
2'F-ANA at 2 3 4 5 6 7 8 9 12 13 14 15	56.9

Study 3
Target: Phosphate system positive regulatory protein PHO4, full length, GST-tagged (PHO4, Saccharomyces cerevisiae, UniProt P07270, residues 1-312)
Method: competition protein-binding microarray
Form: double-stranded DNA, one strand shown
Sample: in vitro
Tested at: 2 µM
Setting: whole 60-bp probe, lowest competitor level
Together with: Cbf1 competitor, 0.05 µM
Reading: higher = stronger binding
Residues (chain): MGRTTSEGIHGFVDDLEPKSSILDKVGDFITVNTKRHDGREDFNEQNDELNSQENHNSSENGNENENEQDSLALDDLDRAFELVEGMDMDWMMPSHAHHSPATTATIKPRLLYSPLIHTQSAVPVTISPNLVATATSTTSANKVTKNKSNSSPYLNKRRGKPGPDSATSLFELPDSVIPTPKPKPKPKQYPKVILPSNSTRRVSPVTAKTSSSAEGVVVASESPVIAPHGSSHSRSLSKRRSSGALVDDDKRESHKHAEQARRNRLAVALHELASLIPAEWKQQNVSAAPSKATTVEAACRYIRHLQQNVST
Strand	fluorescence intensity
CTTGACTATCCAGATCGTGTGAGAGGGCAACTGTGTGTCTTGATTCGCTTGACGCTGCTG	6220 a.u.
AAGAGTATTATACAGCACGCAGCAGAACAGTTATACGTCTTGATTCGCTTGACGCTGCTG	9180 a.u.
AAAGCGGTAATTTGACGTGTGGGTGCAGATATCTATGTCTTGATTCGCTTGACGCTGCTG	5560 a.u.
AGAGAGTGGGATGCGGGCGTGGGTATCTGCTGTTACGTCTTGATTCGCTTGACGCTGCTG	9010 a.u.
CTTTCCCGATCTTGTCACAGCACTTTAGCACATTTGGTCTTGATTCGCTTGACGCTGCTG	4250 a.u.
ATTTGTCAATGCCATCACGATGCAAGTCAGTGATGTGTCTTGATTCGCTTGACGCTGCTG	8490 a.u.
CTTTCCCGATCTTTTCACGTGTTCTTAGCACATTTGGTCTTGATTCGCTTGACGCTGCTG	12500 a.u.
CATACCCAACCTTGTCACTAAACTTAAGATATTTGTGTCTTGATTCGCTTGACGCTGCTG	3620 a.u.
TTTTGCTCAAACGGTCGCGTGCTAAGCGGAACGAGAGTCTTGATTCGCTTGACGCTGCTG	9090 a.u.
GTCTTGTCTCATTTTCACGTGTCCTTCCCCACTTCAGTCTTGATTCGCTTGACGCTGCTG	12700 a.u.

Study 4
Molecule: PhoQ, residues 284 288 289 292 302 303 NLALSC
Method: Sort-seq
Refers to: YFP reporter
Sample: E. coli
Setting: PhoQ-PhoP variant library
Together with: 10 µM Mg2+
Reference: high Mg2+ state
Reading: higher = stronger signaling
target	fold induction
PhoP, residues 12 14 15 18 19 SHWTV (Escherichia coli, UniProt P23836)	0.719
PhoP, residues 12 14 15 18 19 QYCSL (Escherichia coli, UniProt P23836)	1.68
PhoP, residues 12 14 15 18 19 STHWV (Escherichia coli, UniProt P23836)	1.28
